Experimental data of several laboratories.
Every numbered part comes from another study and shows a few of its results, in no order.
Sequence of UniProt P16591 (whole entry, looked up): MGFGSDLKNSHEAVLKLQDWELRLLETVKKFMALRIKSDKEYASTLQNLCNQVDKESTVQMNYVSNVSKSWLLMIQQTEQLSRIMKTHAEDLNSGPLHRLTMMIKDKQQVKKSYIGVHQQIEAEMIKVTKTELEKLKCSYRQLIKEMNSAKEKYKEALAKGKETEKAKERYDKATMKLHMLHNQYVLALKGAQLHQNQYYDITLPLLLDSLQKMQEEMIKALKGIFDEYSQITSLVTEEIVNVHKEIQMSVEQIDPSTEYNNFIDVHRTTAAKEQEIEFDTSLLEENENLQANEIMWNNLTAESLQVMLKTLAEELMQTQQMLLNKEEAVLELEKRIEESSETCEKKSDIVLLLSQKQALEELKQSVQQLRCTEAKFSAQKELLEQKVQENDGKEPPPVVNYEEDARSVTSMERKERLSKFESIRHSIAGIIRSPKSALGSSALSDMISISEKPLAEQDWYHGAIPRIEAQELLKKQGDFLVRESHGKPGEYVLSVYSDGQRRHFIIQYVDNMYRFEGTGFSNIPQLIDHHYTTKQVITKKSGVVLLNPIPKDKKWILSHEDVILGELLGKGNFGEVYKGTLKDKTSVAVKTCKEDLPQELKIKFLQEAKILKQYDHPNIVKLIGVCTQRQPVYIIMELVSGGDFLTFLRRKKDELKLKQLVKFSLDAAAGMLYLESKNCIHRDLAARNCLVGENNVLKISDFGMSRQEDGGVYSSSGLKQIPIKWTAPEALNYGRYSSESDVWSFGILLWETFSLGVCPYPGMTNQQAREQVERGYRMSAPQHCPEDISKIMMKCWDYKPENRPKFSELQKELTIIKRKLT
Sequence of UniProt P35968 (whole entry, looked up): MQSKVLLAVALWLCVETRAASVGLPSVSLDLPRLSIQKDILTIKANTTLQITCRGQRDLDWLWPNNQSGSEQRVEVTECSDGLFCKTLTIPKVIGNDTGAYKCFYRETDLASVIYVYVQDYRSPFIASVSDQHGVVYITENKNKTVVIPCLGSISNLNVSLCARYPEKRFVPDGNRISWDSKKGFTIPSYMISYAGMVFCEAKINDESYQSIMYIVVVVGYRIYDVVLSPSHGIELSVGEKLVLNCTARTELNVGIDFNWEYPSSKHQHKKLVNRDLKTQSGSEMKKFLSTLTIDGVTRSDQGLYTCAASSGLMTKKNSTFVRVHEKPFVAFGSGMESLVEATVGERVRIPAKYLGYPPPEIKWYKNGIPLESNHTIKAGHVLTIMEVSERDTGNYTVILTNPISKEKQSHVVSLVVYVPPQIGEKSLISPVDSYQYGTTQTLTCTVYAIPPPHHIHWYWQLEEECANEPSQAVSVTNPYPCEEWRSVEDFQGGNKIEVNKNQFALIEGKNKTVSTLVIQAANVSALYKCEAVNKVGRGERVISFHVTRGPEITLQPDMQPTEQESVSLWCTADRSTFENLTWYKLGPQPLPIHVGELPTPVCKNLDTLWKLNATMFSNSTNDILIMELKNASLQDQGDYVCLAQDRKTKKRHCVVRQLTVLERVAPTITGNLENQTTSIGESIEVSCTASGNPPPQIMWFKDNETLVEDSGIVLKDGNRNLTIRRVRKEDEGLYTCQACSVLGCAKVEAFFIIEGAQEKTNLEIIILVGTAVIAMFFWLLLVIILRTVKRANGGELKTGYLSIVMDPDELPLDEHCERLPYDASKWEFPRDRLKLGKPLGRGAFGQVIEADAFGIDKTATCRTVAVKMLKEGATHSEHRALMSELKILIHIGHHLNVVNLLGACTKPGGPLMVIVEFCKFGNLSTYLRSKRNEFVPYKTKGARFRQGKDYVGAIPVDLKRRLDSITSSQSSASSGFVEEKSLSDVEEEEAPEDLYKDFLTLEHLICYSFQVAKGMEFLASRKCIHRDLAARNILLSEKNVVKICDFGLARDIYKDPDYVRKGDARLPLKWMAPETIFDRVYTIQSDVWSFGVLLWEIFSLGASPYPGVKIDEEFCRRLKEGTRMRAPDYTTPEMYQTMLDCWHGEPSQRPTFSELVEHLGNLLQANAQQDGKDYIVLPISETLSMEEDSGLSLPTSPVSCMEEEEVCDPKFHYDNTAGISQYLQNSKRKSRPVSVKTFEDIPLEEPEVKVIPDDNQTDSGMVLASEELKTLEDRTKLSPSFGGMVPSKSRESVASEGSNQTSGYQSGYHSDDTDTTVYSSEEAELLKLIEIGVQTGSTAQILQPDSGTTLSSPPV
Sequence of UniProt Q59H18 (whole entry, looked up): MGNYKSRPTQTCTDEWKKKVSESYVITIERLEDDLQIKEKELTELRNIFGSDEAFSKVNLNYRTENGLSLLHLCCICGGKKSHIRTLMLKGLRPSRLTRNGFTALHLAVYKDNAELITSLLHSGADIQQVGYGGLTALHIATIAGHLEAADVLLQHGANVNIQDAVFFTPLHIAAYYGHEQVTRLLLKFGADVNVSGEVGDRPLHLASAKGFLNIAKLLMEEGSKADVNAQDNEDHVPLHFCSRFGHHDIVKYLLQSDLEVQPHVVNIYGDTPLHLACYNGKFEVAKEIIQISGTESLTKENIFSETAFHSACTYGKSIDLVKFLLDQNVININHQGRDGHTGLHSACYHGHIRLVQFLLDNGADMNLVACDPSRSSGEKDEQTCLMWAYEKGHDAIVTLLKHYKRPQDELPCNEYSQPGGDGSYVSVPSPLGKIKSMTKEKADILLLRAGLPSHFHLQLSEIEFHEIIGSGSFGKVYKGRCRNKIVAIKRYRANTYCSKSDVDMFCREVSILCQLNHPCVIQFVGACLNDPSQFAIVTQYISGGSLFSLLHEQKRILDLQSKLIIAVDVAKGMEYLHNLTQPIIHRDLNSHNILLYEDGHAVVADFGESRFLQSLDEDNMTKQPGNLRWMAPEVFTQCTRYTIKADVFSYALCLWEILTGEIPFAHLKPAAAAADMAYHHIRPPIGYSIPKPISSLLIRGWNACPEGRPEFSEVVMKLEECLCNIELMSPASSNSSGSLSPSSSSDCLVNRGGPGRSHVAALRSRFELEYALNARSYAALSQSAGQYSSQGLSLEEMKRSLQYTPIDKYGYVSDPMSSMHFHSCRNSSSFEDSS
Sequence of UniProt Q8IYT8 (whole entry, looked up): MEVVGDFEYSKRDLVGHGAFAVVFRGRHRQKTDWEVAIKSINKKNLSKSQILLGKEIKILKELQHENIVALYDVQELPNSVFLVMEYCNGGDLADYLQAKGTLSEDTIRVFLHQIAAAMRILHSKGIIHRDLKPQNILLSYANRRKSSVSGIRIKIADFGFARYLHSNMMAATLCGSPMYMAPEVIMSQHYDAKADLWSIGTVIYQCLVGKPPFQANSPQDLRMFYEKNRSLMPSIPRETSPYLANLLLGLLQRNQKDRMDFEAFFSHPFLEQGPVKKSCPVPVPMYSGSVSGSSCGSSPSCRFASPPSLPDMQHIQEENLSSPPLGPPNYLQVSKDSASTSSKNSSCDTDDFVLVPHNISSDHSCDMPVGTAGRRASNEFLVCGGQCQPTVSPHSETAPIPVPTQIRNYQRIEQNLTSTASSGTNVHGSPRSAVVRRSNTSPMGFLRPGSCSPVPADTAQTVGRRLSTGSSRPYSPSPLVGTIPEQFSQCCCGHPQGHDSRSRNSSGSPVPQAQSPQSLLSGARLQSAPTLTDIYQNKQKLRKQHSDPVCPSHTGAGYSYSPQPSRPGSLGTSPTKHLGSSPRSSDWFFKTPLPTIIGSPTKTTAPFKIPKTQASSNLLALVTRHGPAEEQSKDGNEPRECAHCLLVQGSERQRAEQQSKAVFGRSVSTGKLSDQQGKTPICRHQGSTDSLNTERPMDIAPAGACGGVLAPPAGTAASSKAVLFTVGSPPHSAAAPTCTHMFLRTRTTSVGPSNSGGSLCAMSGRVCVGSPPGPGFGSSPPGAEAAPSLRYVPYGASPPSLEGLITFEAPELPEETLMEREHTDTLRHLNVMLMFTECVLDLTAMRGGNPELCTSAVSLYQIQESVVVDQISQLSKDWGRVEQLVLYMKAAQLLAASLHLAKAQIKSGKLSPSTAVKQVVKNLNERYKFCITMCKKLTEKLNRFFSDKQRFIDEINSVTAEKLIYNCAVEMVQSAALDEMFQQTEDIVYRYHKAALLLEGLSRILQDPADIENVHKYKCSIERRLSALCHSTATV
Sequence of UniProt Q96RR4 (whole entry, looked up): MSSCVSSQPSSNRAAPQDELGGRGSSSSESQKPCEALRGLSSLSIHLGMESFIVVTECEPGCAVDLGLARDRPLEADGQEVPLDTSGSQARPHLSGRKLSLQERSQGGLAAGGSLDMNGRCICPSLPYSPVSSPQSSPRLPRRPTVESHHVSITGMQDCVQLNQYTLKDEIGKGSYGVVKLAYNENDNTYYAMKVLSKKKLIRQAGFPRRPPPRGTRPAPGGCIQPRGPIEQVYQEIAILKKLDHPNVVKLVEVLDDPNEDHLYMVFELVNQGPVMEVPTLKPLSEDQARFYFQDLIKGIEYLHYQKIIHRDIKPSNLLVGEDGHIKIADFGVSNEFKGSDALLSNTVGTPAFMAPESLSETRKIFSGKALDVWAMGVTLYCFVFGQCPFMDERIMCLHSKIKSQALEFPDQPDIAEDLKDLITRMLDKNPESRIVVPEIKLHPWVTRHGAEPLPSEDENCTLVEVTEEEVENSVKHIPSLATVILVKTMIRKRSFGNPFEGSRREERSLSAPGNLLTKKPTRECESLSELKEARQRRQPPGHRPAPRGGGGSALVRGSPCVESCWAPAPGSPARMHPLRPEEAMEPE

Sample 1
Compound: Cc1sc(C(=O)NC2COC2)cc1-n1cc(NC(=O)Nc2c(F)cccc2Cl)cn1
Read-out: enzyme activity
Concentration: 10 µM
Baseline: untreated control
target | remaining activity [%]
Tyrosine-protein kinase SYK (SYK, Homo sapiens, UniProt P43405) | 85.5
Serine/threonine-protein kinase ULK2 (ULK2, Homo sapiens, UniProt Q8IYT8) | 69.8
Cyclin-dependent kinase 19, with cyclin C (CDK19, Homo sapiens, UniProt Q9BWU1) | 96.8
MAP kinase-activated protein kinase 2 (MAPKAPK2, Homo sapiens, UniProt P49137) | 89.9
Aurora kinase C (AURKC, Homo sapiens, UniProt Q9UQB9) | 101
Calcium/calmodulin-dependent protein kinase kinase 1 (CAMKK1, Homo sapiens, UniProt Q8N5S9) | 116
Non-receptor tyrosine-protein kinase TNK1 (TNK1, Homo sapiens, UniProt Q13470) | 102
PAS domain-containing serine/threonine-protein kinase (PASK, Homo sapiens, UniProt Q96RG2) | 92.9
Serine/threonine-protein kinase ICK (CILK1, Homo sapiens, UniProt Q9UPZ9) | 100
Serine/threonine-protein kinase 24 (STK24, Homo sapiens, UniProt Q9Y6E0) | 63.2
Serine/threonine-protein kinase DCLK2 (DCLK2, Homo sapiens, UniProt Q8N568) | 105

Sample 2
Species: human
Medium: microsomes or S9
Concentration: 2 µM
Time: 0.5 h
SMILES | remaining compound [%]
Cn1nc(C2CC2)c2c(C(=O)Nc3ccc(Cn4cc(Cl)cn4)cc3)cc(C3CC3)nc21 | 89.2
Cc1onc2c1COC2c1c(Cl)cccc1Cl (centres unmarked) | 74.2
O=C1C2CN(Cc3cncs3)CCN2C(=O)N1c1ccccc1 (centres unmarked) | 92.9
CC(C)n1/c(=N/C(=O)c2ccccc2Br)c(C#N)cc2c(=O)n3ccccc3cc21 | 18.3
Cc1cc(C)nc(SCc2nc3scc(C)n3c2Br)n1 | 0.477
Cc1nn2c(nnc3c(=O)n(-c4nnc[nH]4)ccc32)c1-c1ccccc1 | 63
O=C(CN1CCCCCC1)NCC12CCCC=C1NC(=O)CC2 (centres unmarked) | 81
CS(=O)(=O)N1N=C(c2cccs2)CC1c1ccc2nccnc2c1 (centres unmarked) | 34.7
Cc1ccc2cc(CNc3ccc4c(c3)C(=O)NC4)ccc2n1 | 62.6
COCCOC(=O)c1c(C)[nH]c(C(=O)N2CCOc3ccc(S(C)(=O)=O)cc32)c1C | > 99
COc1ccc(C2C(C(=O)N3CCN(c4ccccn4)CC3)CCC(=O)N2c2cc(OC)c(OC)c(OC)c2)cc1 (centres unmarked) | 61.6
C[C@@H](NC(=O)c1cc(S(=O)(=O)N(C)C)c[nH]1)c1ncc[nH]1 | 82.9
CC1(C)CC(=O)C(C(Cc2ccccc2)C2=C(O)CC(C)(C)CC2=O)=C(O)C1 | < 1
COCCCNc1nnc(Cc2ccc(Cl)cc2)c(O)n1 | > 99.9
COc1ccc(C(=O)N2CCC(c3ccc(OC)cc3)(c3ccc(OC)cc3)CC2)cc1 | 16.7

Sample 3
Target: Mitogen-activated protein kinase 8 (MAPK8, Homo sapiens, UniProt P45983)
Sequence of UniProt P45983 (whole entry, looked up): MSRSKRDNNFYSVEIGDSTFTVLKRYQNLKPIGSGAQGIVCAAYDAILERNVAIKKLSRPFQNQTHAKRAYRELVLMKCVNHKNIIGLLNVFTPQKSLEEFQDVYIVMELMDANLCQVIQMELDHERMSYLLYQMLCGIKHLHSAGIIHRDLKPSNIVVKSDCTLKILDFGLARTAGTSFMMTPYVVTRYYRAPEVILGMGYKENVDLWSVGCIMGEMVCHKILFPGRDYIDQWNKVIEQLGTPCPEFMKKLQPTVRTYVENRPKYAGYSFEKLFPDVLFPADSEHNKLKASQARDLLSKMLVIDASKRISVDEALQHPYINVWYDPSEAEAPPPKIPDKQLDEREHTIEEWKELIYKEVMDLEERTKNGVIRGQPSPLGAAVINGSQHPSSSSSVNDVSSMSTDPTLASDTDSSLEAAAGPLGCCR
Read-out: enzyme activity
Action: inhibitor
Concentration: 0.5 µM
Baseline: control
SMILES | remaining activity
CCCNC(=O)Nc1ccc(Oc2ncnc3cc(OC)c(OC)cc23)cc1Cl | 107%
O=Nc1c(-c2c(O)[nH]c3cc(Br)ccc23)[nH]c2ccccc12 | 98.7%
O=C1Nc2ccc(Br)cc2/C1=C/c1cc2c([nH]1)CCCC2 | 107%
O=C1Cc2c([nH]c3ccc(Br)cc23)-c2ccccc2N1 | 87.5%
O=C1NC(=O)c2c1c1c3ccccc3[nH]c1c1[nH]c3cc(Br)ccc3c21 | 85.2%
c1ccc2c(-c3ccncc3)c[nH]c2c1 | 100%
O=C(c1cc2cc(O)ccc2[nH]1)c1cc2cc(O)ccc2[nH]1 | 112%
O=c1cc(N2CCOCC2)oc2c(-c3ccccc3)cccc12 | 106%
Cc1cc(Nc2cc(N3CCN(C)CC3)nc(Sc3ccc(NC(=O)C4CC4)cc3)n2)[nH]n1 | 95.4%
Cc1ccc(S(=O)(=O)/C=C/C#N)cc1 | 74.7%
CN(C)S(=O)(=O)c1ccc2c(c1)/C(=C/c1cc3c([nH]1)CCCC3)C(=O)N2 | 91.1%
c1ccc(-c2n[nH]c3c2oc2ccccc23)cc1 | 79.6%
O=C1Nc2ccccc2/C1=C\c1c(Cl)[nH]c2ccccc12 | 93.5%
CCCCc1c(-c2ccc(OC)cc2)[nH]c2nccnc12 | 74.5%
COc1ccc2c(c1)c(C1=C(c3c[nH]c4ccccc34)C(=O)NC1=O)cn2CCCN(C)C | 80%
COc1cccc(-c2cc(=O)c3ccccc3o2)c1N | 95.3%
N#Cc1cnc2cnc(NCc3cccnc3)cc2c1Nc1ccc(F)c(Cl)c1 | 110%
COc1ccc(COc2ccc(Cc3cnc(N)nc3N)cc2OC)cc1 | 91.9%
Oc1cccc(-c2nc(N3CCOCC3)c3oc4ncccc4c3n2)c1 | 89.8%
CN1CCN(c2ccc3nc(-c4c(N)c5c(F)cccc5[nH]c4=O)[nH]c3c2)CC1 | 106%

Sample 4
Compound: Cc1nccc(COC(=O)N2C[C@@H]3[C@@H](CNC(=O)c4ccc5[nH]nnc5c4)[C@@H]3C2)n1
Concentration: 1 µM
target | read-out | method | remaining binding
Calcium/calmodulin-dependent protein kinase kinase 2 (CAMKK2, Homo sapiens, UniProt Q96RR4) | cell-free assay | competition with immobilised ligand | 100%
Aurora kinase B (AURKB, Homo sapiens, UniProt Q96GD4) | cell-free assay | competition with immobilised ligand | 93%
Serine/threonine-protein kinase TNNI3K (TNNI3K, Homo sapiens, UniProt Q59H18) | cell-free assay | competition with immobilised ligand | 94%
ALK tyrosine kinase receptor (ALK, Homo sapiens, UniProt Q9UM73, C1156Y) | cell-free assay | competition with immobilised ligand | 76%
Aurora kinase A (AURKA, Homo sapiens, UniProt O14965) | cell-free assay | competition with immobilised ligand | 91%
Serine/threonine-protein kinase Nek6 (NEK6, Homo sapiens, UniProt Q9HC98) | cell-free assay | competition with immobilised ligand | 100%
cAMP-dependent protein kinase catalytic subunit PRKX (PRKX, Homo sapiens, UniProt P51817) | cell-free assay | competition with immobilised ligand | 100%
Epidermal growth factor receptor (EGFR, Homo sapiens, UniProt P00533, L858R/T790M) | cell-free assay | competition with immobilised ligand | 100%
Mast/stem cell growth factor receptor Kit (KIT, Homo sapiens, UniProt P10721, D816H) | cell-free assay | competition with immobilised ligand | 99%
Tyrosine-protein kinase ABL1, phosphorylated (ABL1, Homo sapiens, UniProt P00519, Y253F) | cell-free assay | competition with immobilised ligand | 93%
Serine/threonine-protein kinase Nek4 (NEK4, Homo sapiens, UniProt P51957) | cell-free assay | competition with immobilised ligand | 79%
Tyrosine-protein kinase Lyn (LYN, Homo sapiens, UniProt P07948) | cell-free assay | competition with immobilised ligand | 100%
Serine/threonine-protein kinase VRK2 (VRK2, Homo sapiens, UniProt Q86Y07) | cell-free assay | competition with immobilised ligand | 29%
Rho-associated protein kinase 2 (ROCK2, Homo sapiens, UniProt O75116) | cell-free assay | competition with immobilised ligand | 86%
Calcium/calmodulin-dependent protein kinase type 1 (CAMK1, Homo sapiens, UniProt Q14012) | cell-free assay | competition with immobilised ligand | 93%
Vascular endothelial growth factor receptor 2 (KDR, Homo sapiens, UniProt P35968) | cell-free assay | competition with immobilised ligand | 80%
Leukocyte tyrosine kinase receptor (LTK, Homo sapiens, UniProt P29376) | cell-free assay | competition with immobilised ligand | 93%
Dual specificity protein kinase CLK2 (CLK2, Homo sapiens, UniProt P49760) | cell-free assay | competition with immobilised ligand | 80%
Serine/threonine-protein kinase SIK1 (SIK1, Homo sapiens, UniProt P57059) | – | competition binding | 98%
Wee1-like protein kinase 2 (WEE2, Homo sapiens, UniProt P0C1S8) | cell-free assay | competition with immobilised ligand | 100%
Inhibitor of nuclear factor kappa-B kinase subunit epsilon (IKBKE, Homo sapiens, UniProt Q14164) | cell-free assay | competition with immobilised ligand | 100%
Receptor tyrosine-protein kinase erbB-4 (ERBB4, Homo sapiens, UniProt Q15303) | cell-free assay | competition with immobilised ligand | 100%
Tyrosine-protein kinase Fer (FER, Homo sapiens, UniProt P16591) | cell-free assay | competition with immobilised ligand | 100%
Serine/threonine-protein kinase N2 (PKN2, Homo sapiens, UniProt Q16513) | cell-free assay | competition with immobilised ligand | 100%
Receptor-type tyrosine-protein kinase FLT3 (FLT3, Homo sapiens, UniProt P36888, D835V) | cell-free assay | competition with immobilised ligand | 79%

Excerpt of the above (sample 1):
target | remaining activity [%]
Tyrosine-protein kinase SYK (SYK, Homo sapiens, UniProt P43405) | 85.5
Serine/threonine-protein kinase ULK2 (ULK2, Homo sapiens, UniProt Q8IYT8) | 69.8
Cyclin-dependent kinase 19, with cyclin C (CDK19, Homo sapiens, UniProt Q9BWU1) | 96.8
MAP kinase-activated protein kinase 2 (MAPKAPK2, Homo sapiens, UniProt P49137) | 89.9
Aurora kinase C (AURKC, Homo sapiens, UniProt Q9UQB9) | 101
Calcium/calmodulin-dependent protein kinase kinase 1 (CAMKK1, Homo sapiens, UniProt Q8N5S9) | 116
Non-receptor tyrosine-protein kinase TNK1 (TNK1, Homo sapiens, UniProt Q13470) | 102
PAS domain-containing serine/threonine-protein kinase (PASK, Homo sapiens, UniProt Q96RG2) | 92.9
Serine/threonine-protein kinase ICK (CILK1, Homo sapiens, UniProt Q9UPZ9) | 100
Serine/threonine-protein kinase 24 (STK24, Homo sapiens, UniProt Q9Y6E0) | 63.2
